Published values of several laboratories.
Each line is one published result; not all experiments were run side by side. Numbers after ± are the reported error.
Ugcg: Ceramide glucosyltransferase (Ugcg, Mus musculus, UniProt O88693)
RAD52: DNA repair protein RAD52 homolog (RAD52, Homo sapiens, UniProt P43351)

OC[C@@H]1[C@@H](O)[C@H](O)[C@@H](O)CN1CCCCCOCc1ccc(-c2ccc(C(F)(F)F)cc2)cc1 — IC50 (Ugcg; enzyme activity, inhibitor, fluorescence): 0.025 µM
C=CS(=O)(=O)c1ccc(OC)c(-c2c[nH]c3ncc(-c4cncc(C(=O)N(C)C)c4)cc23)c1 — IC50 (ABL1 (Homo sapiens, UniProt P00519); kinase activity, inhibitor, HTRF; 1 h preincubation, together with: ATP 20 µM): > 1 µM
O=C(CC(F)(F)F)Nc1ccc([C@H]2[C@@H](F)[C@@H](F)C[C@@H](F)[C@H]2F)cc1 — hepatic clearance (hepatocyte stability; cryopreserved mouse hepatocytes; 1 µM): 58 mL/min/kg
OC[C@@H]1[C@@H](O)[C@H](O)[C@@H](O)CN1CCCCCOCc1ccc2ccccc2c1 — IC50 (Ugcg; enzyme activity, inhibitor, fluorescence): 0.003 µM
CC(C)(C)OC(=O)N1CCN(c2ccc3c(O)c(C(=O)NCc4ccc(C#N)nc4)ncc3n2)CC1 — IC50 (Prolyl hydroxylase EGLN3, PHD (EGLN3, Homo sapiens, UniProt Q9H6Z9); enzyme activity, inhibitor): 0.0107 µM
Cc1nn(-c2cccc(N)c2)c(=O)c2cnc(Nc3ccc(N4CCNCC4)cc3)nc12 — IC50 (CSNK1G3 (Homo sapiens, UniProt Q9Y6M4); enzyme activity, inhibitor): > 10 µM
O=C(Cc1ccc(OCc2ccccc2)cc1)NC1(C(=O)O)CCN(C(=O)c2ccc(-c3cccc(Cl)c3)cc2)CC1 — IC50 (Probable G-protein coupled receptor 174 (Homo sapiens, UniProt Q9BXC1); TGF-alpha shedding, antagonist): > 10 µM
[N-]=[N+]=NC(CC(=O)NO)Cc1c[nH]c2ccccc12 (centres unmarked) — IC50 (ERAP2 (Homo sapiens, UniProt Q6P179); enzyme activity, inhibitor, fluorescence): 64 µM
Fc1ccc(Nc2nc(NC3CCCCC3)c3ccccc3n2)cc1F — IC50 (ADRB2 (Homo sapiens, UniProt P07550, F133L); β-arrestin2 recruitment, antagonist, BRET; HEK293; mutant F133L, together with: isoprenaline 1 µM): 1.26 µM
Cc1ccc(NS(=O)(=O)c2c(C)[nH]c(C)c2C(=O)N2CCCCC2)cc1Cl — IC50 (DRD3 (Homo sapiens, UniProt P35462); Go activation, antagonist, BRET; together with: dopamine): 17 ± 0.9 µM
C[C@H](OCCCCCN1C[C@H](O)[C@@H](O)[C@H](O)[C@H]1CO)c1ccc(-c2ccccc2)cc1 — IC50 (Ugcg; enzyme activity, inhibitor, fluorescence): 0.07 µM
COc1cc(N2CCOCC2)ccc1Nc1ncc(Cl)c(Nc2ccccc2NS(C)(=O)=O)n1 — IC50 (EGFR (Homo sapiens, UniProt P00533); cell-free assay): 0.0212 µM
COCC1CN(C2CCN(c3cc(OC)c(Nc4ncc(Br)c(Nc5ccc6c(c5P(C)(C)=O)OCCO6)n4)cc3C)CC2)C1 — IC50 (EGFR (Homo sapiens, UniProt P00533, T790M); enzyme activity, inhibitor, TR-FRET): 0.00046 µM
O=C(CN1CCOCC1)Nc1ccc(C2CCCCC2)cc1 — hepatic clearance (hepatocyte stability; cryopreserved rat hepatocytes; 1 µM): 45 mL/min/kg
CCn1nc(Cl)c2c1-c1cnc(N)c(c1)O[C@H](C)c1cc(F)ccc1-c1nn(C)cc1C2 — IC50 (ALK (Homo sapiens, UniProt Q9UM73, L1198F); enzyme activity, inhibitor; together with: 1 mM ATP): 0.00091 µM
O=C(COC(=O)c1cc(O)c2ccoc2c1)NC(c1ccccc1)c1ccc(Cl)cc1 (centres unmarked) — IC50 (PLA2G4A (Homo sapiens, UniProt P47712); enzyme activity, inhibitor, fluorescence): 4.43 µM
C=CC(=O)Nc1cccc(Cn2ncc3cnc(Nc4cnn(CCOC)c4)nc32)c1 — percent of control (FGFR1 human; binding, KINOMEscan; 100 nM; lower = stronger binding): 27%
Nc1ncc(-c2cc(-c3cnn(CC(F)(F)F)c3)ncc2F)nc1C(=O)NC1CNCC(F)C1 (centres unmarked) — remaining binding (PDGFRB; KINOMEscan; 1 µM; reference: DMSO control): 100%
OC[C@@H]1[C@@H](O)[C@H](O)[C@@H](O)CN1CCCCCOCc1ccc(-c2ccccc2)cn1 — IC50 (Ugcg; enzyme activity, inhibitor, fluorescence): 0.2 µM
CC(=O)OC[C@H](COc1ccc(C(C)(C)c2ccc(OC[C@@H](CCl)OC(C)=O)cc2)cc1)OC(C)=O — IC50 (Androgen receptor (AR, Homo sapiens, UniProt P10275); antagonist, nuclear translocation; primary screen, top 100 µM): > 100 µM
CC(=O)c1cnc(N)nc1N1CC[C@H]1c1nn2ccc(Cl)c2c(=O)n1-c1ccccc1 — IC50 (PI3-kinase catalytic subunit delta (Rattus norvegicus, UniProt A0A8I5Y949); binding, KiNativ; intact rat white blood cells): 0.0384 µM
COc1cc(O)c2c(c1)CCC21CCC(=O)CC1 — IC50 (Si (Rattus norvegicus, UniProt P23739); enzyme activity, inhibitor, absorbance): 2200 µM
O=C1Nc2ccc(Cl)cc2[C@@](C#CC2CC2)(C(F)(F)F)O1 — IC50 (ALDH1B1 (Homo sapiens, UniProt P30837); enzyme activity, inhibitor): 5.53 µM
CN1CCN(CCCNC(=O)c2cc3c(-c4ccc(Cl)cc4)nn(C)c3s2)CC1 — IC50 (RAD52; ssDNA annealing, fluorescence quenching): 2 µM
CC(C)CCC[C@@H](C)[C@H]1CC[C@H]2[C@@H]3CC=C4C[C@@H](OCCCCCN5C[C@H](O)[C@@H](O)[C@H](O)[C@@H]5CO)CC[C@]4(C)[C@H]3CC[C@]12C — IC50 (Ugcg; enzyme activity, inhibitor, fluorescence): 1 µM
CCN(CC)CC(=O)Nc1cccc(-n2cc(-c3ccc4ccc(-c5cn(-c6cccc(NC(=O)CN(CC)CC)c6)nn5)cc4c3)nn2)c1 — IC50 (IRAK1 (Homo sapiens, UniProt P51617); enzyme activity, inhibitor): > 10 µM
OC[C@H]1[C@@H](O)[C@H](O)[C@@H](O)CN1CCCCCOCCC12CC3CC(CC(C3)C1)C2 — IC50 (Ugcg; enzyme activity, inhibitor, fluorescence): 5 µM
Cc1cc(N2CCN(C)CC2)nc2ccc(NC(=S)NCCCN3CCN(C)CC3)cc12 — IC50 (RAD52; D-loop formation; together with: RAD52 450 nM): 15.4 ± 0.57 µM
COC1CN([C@H]2CC[C@H]([C@@]3(C)Oc4c(Cl)cc(C(=O)NCc5c(SC)cc(C)[nH]c5=O)c(C)c4O3)CC2)C1 — log2 fold change (RNA-seq, measured: P2RY14 mouse homolog; mouse, HT-1376 xenograft, whole blood; dose not given; reference: vehicle): 0.934
OC[C@@H]1[C@@H](O)[C@H](O)[C@@H](O)CN1CCCCCOCc1ccc(-c2ccccc2)c(F)c1 — IC50 (Ugcg; enzyme activity, inhibitor, fluorescence): 0.025 µM
Cn1nc(-c2ccc(Cl)cc2)c2cc(C(=O)NCCCN3CCCCCC3)sc21 — IC50 (RAD52; ssDNA annealing, fluorescence quenching): 4.1 µM
Cc1ccc(Nc2cc(NC3CC3)n3ncc(C#N)c3n2)cc1NC(=O)C1CC1 — IC50 (CSNK2A2 (Homo sapiens, UniProt P19784); target engagement in cells, BRET): 2.7 µM
O=C(OCc1ccc(OC(=O)c2ccc([N+](=O)[O-])cc2)cc1)c1ccc([N+](=O)[O-])cc1 — IC50 (Apelin receptor (APLNR, Homo sapiens, UniProt P35414); β-arrestin recruitment, antagonist): > 100 µM
CCCCCCCN1C[C@H](O)[C@@H](O)[C@H](O)[C@H]1CO — IC50 (Ugcg; enzyme activity, inhibitor, fluorescence): 20 µM
CC(C)C[C@H](NC(=O)[C@H](CC(=O)O)NC(=O)[C@H](C)N)C(=O)N1CCC[C@H]1C(=O)N[C@@H](Cc1ccccc1)C(=O)N[C@@H](CCC(=O)O)C(=O)N[C@H](Cc1ccccc1)C(N)=O — IC50 (Transcriptional regulator PlcR (Bacillus thuringiensis, UniProt A0ACM8Q0N2); reporter gene, inhibitor, lacZ reporter; 407 Cry−): 1.22 ± 0.07 µM
CCCCc1nc2c([nH]1)[C@H](O)[C@@H](O)[C@H](O)[C@H]2O — IC50 (GAA (Homo sapiens, UniProt P10253); pH 4.8): > 100 µM
Cc1[nH]nc2c1N=C(c1ccccc1Cl)c1cnc(N3CCOCC3)cc1N2 — IC50 (Cytochrome P450 2B6 (CYP2B6, Homo sapiens, UniProt P20813); enzyme activity, inhibitor; human, liver microsomes): > 10 µM
Cc1cc(NC2CCN(C)CC2)ccc1-c1cc2c(N3CCC[C@H](C(=O)NCc4ccc(OC(F)(F)F)cc4)C3)ncnc2[nH]1 — IC50 (Aurora kinase A (AURKA, Homo sapiens, UniProt O14965); enzyme activity, inhibitor, mobility shift): 1.48 µM

Repeated from above:
COc1cc(N2CCOCC2)ccc1Nc1ncc(Cl)c(Nc2ccccc2NS(C)(=O)=O)n1 — IC50 (EGFR (Homo sapiens, UniProt P00533); cell-free assay): 0.0212 µM
CC(C)C[C@H](NC(=O)[C@H](CC(=O)O)NC(=O)[C@H](C)N)C(=O)N1CCC[C@H]1C(=O)N[C@@H](Cc1ccccc1)C(=O)N[C@@H](CCC(=O)O)C(=O)N[C@H](Cc1ccccc1)C(N)=O — IC50 (Transcriptional regulator PlcR (Bacillus thuringiensis, UniProt A0ACM8Q0N2); reporter gene, inhibitor, lacZ reporter; 407 Cry−): 1.22 ± 0.07 µM
Fc1ccc(Nc2nc(NC3CCCCC3)c3ccccc3n2)cc1F — IC50 (ADRB2 (Homo sapiens, UniProt P07550, F133L); β-arrestin2 recruitment, antagonist, BRET; HEK293; mutant F133L, together with: isoprenaline 1 µM): 1.26 µM
O=C(CN1CCOCC1)Nc1ccc(C2CCCCC2)cc1 — hepatic clearance (hepatocyte stability; cryopreserved rat hepatocytes; 1 µM): 45 mL/min/kg
